Experimental data collected from several papers.
A part holds a random share of what one study measured. “And” joins repeats or separate records; there may be more than shown. Substitutions count along the parent as printed.
Chain of UniProt P49674 (whole entry, looked up): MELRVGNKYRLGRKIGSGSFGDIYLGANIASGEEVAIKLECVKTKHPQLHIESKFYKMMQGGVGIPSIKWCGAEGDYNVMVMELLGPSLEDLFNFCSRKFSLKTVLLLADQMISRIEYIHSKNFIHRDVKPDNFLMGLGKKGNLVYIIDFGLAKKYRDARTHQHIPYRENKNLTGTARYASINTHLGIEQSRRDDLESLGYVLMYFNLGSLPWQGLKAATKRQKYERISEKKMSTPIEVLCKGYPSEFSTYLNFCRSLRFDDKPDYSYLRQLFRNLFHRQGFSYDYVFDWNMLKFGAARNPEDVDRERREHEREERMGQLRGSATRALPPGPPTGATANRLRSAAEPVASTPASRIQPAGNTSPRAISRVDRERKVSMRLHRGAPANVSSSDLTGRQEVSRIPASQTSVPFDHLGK

Series 1
Target: UDP-N-acetylglucosamine--peptide N-acetylglucosaminyltransferase 110 kDa subunit (OGT, Homo sapiens, UniProt O15294)
Chain of UniProt O15294 (whole entry, looked up): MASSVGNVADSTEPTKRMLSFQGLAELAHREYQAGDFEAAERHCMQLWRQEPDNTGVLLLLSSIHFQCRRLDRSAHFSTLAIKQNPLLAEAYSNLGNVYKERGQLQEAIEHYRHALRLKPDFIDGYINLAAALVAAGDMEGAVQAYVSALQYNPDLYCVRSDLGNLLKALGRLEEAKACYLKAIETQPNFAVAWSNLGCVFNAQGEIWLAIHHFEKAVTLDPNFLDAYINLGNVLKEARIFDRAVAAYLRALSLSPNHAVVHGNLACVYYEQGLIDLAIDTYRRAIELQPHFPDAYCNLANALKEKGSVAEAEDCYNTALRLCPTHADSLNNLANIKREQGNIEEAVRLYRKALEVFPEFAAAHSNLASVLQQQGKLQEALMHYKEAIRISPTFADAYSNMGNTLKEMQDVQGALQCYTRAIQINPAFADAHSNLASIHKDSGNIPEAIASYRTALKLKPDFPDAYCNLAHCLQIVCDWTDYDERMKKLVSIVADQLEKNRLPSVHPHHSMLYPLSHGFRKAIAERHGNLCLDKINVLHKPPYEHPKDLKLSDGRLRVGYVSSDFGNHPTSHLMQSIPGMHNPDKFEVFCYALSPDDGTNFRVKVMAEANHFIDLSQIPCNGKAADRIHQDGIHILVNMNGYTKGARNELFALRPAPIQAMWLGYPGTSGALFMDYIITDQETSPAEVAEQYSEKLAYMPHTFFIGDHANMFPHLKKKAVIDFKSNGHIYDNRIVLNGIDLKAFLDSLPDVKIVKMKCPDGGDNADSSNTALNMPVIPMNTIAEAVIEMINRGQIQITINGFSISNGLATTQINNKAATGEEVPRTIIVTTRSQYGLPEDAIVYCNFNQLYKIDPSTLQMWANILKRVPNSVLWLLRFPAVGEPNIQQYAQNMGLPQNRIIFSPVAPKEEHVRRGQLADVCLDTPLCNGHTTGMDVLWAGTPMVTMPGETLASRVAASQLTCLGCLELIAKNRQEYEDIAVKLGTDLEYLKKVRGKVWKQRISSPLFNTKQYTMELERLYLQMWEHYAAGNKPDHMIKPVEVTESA
Read-out: phage display binding
Technique: phage display panning NGS
Molecule type: peptide
Baseline: OGT-panned over input library
Quantity: log2 fold enrichment
DDITFPPQYMMTVHR: 1.99
GHFPVLHNTYQHHHQ: 3.1
NYYGQHHHVLQHGDE: 2.61
HSWQHHHIMYEVGEG: 3.32
HTMWHAEHFTRYDVH: 2.59
FLPQYKIEVPFSVYK: 2.65
VLQPYLPEYQIYPNY: 2.67
QYQHRSYMPFYQIAT: 6.11

Series 2
Cell line: HEK-293T
Read-out: pseudovirus infection
Technique: FDA-approved drug library counter-screen
Organism: VSV pseudotyped with VSV-G
Concentration: 10 µM
Time: 16 h
Baseline: vehicle-treated
Quantity: GFP-positive cells
O=C(OOC(=O)c1ccccc1)c1ccccc1: 87%
Nc1ccn(C[C@@H](CO)OCP(=O)(O)O)c(=O)n1: 120%
Nc1ccn([C@H]2CC[C@@H](CO)O2)c(=O)n1: 114%

Series 3
Target: tungstate, free oxyanion
Technique: microfluidic competitive inhibition
Sample: in vitro, cell-free expressed
Concentration: not given
Notes: derived from inhibition constants, unchanged parent 2230 nM
Reading: lower = stronger binding
Quantity: oxyanion analog dissociation constant
Starting sequence: PafA, mature enzyme, eGFP fusion (Elizabethkingia meningoseptica, UniProt Q9KJX5); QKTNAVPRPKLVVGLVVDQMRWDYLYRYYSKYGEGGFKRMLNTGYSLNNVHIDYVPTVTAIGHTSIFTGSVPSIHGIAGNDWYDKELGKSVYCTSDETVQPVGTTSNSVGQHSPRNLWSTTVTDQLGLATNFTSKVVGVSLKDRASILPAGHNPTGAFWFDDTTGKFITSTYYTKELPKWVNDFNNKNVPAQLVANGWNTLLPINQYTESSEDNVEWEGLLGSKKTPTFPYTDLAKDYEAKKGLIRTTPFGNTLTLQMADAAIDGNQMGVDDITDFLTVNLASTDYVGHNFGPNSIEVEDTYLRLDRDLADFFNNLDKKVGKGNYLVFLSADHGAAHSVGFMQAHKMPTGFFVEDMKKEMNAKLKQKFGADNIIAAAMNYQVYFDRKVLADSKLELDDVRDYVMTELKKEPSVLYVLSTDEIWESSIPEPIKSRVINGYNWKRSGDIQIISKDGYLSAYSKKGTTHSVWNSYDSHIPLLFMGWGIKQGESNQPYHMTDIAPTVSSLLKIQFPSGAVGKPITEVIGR
I436G: 903 nM
P249V: 1840 nM
E97G: 2020 nM
N196G: 2310 nM
T94V: 1490 nM
M40G: 2900 nM
V91A: 2300 nM
E212V: 2910 nM

Other studies, line by line
CN(N=O)C(=O)N[C@@H]1[C@@H](O)[C@H](O)[C@@H](CO)O[C@@H]1O — body weight (mice, STZ diabetic neuropathy; dose not given, 28 days after STZ): 36.2 g and 32 g and 33.5 g and 27 g
O=C1NC(=O)c2c1c1c3ccccc3n3c1c1c2c2ccccc2n1[C@H]1CC[C@@H]3O1 — remaining activity (CSNK1E (Homo sapiens, UniProt P49674); enzyme activity, inhibitor; 0.5 µM; baseline: control): 47.3%
